{"data": "Results pooled from the literature", "note": "Values joined by “and” are separate records of one study, mostly repeats; a detail may differ. Numbers after ± are the reported error."}
{"Compound": "Cc1cc(Oc2nc(N3CC[C@@H](c4ccncc4)C3)ncc2F)[nH]n1", "tested on": "Kasumi 1", "assay": "cell proliferation", "measurement": "IC50", "value": "15.5 µM"}
{"Compound": "O=C1NC2(CC2)COc2ncc(F)cc2[C@H]2COCCN2c2ccn3ncc1c3n2", "system": "Sprague-Dawley rat, male, epididymides", "conditions": "oral, 20 mg/kg/day, end of treatment, 4-week repeated-dose toxicity", "measurement": "epididymis weight", "value": "1.01 ± 0.088 g"}
{"Compound": "COc1ccccc1-c1n[nH]c2nc(NC3CCN(C(=O)Cc4ccc(F)cc4F)CC3)ncc12", "assay": "bead binding, competition bead pull-down, measured: LINJ.25.1160", "system": "Leishmania donovani extract", "conditions": "10 µM", "scale": "reference: vehicle", "measurement": "relative abundance", "value": 0.84}
{"Compound": "CCOC(=O)C1(Cc2ccc(OC)cc2)Oc2cc(F)ccc2N(Cc2ccc(OC)cc2)C1=O (centres unmarked)", "tested on": "Arabidopsis thaliana", "assay": "root length, petri dish germination", "system": "Col-0, 1/2 MS medium", "conditions": "200 µg/mL, 7 days, 22 °C, dark", "measurement": "inhibition", "value": "78.9%"}
{"Compound": "CC(C)CC(C(=O)N1CC2(CC1C#N)C(=O)Nc1ccccc12)N(C)C(=O)c1cc2c(F)cc(F)c(F)c2[nH]1 (centres unmarked)", "tested on": "human coronavirus 229E", "assay": "viral replication", "system": "MRC-5", "conditions": "0.05 µM", "measurement": "inhibition", "value": "100%"}
{"Compound": "CC(C)(C)C(=O)OCOP(=O)(OCOC(=O)C(C)(C)C)C1CCCN(O)C1=O (centres unmarked)", "tested on": "SK-MEL-2", "measurement": "log GI50", "value": "-5.81 log M"}
{"Compound": "O=S(=O)(c1ccc(-c2ccc3ncnc(Nc4ccc(O)c(Cl)c4)c3c2)cc1)N1CCOCC1", "tested on": "Plasmodium falciparum", "assay": "parasite growth, SYBR Green", "system": "D6", "conditions": "blood stage", "measurement": "EC50", "value": "12 µM"}
{"Compound": "O=C(O)c1ccc(-c2nc(-c3ccccc3Cl)c3sccn23)cc1", "tested on": "K562", "assay": "erythroid differentiation, flow cytometry", "conditions": "0.1 mM, 72 h", "measurement": "CD235a-positive cells", "value": "42.2% and 77%"}
{"Compound": "COc1ccccc1-c1n[nH]c2nc(N[C@H]3CC[C@H](NS(=O)(=O)CC(C)C)CC3)ncc12", "assay": "bead binding, competition bead pull-down, measured: LINJ.26.1220", "system": "Leishmania donovani extract", "conditions": "10 µM", "scale": "reference: vehicle", "measurement": "relative abundance", "value": 1}
{"Compound": "CSCC[C@H](NC(=O)[C@@H](N)CSC1CC(=O)N(CCNC(=O)COc2ccc(/C=C/C3=[N+]4C(=Cc5ccc(-c6cccs6)n5[B-]4(F)F)C=C3)cc2)C1=O)C(=O)N[C@@H](CCC(=O)O)C(=O)N[C@@H](Cc1ccccc1)C(=O)N[C@H](C(=O)N[C@@H](C)C(=O)N[C@@H](CCCCN)C(=O)N[C@@H](CC(C)C)C(=O)N[C@@H](Cc1ccccc1)C(=O)N[C@@H](CCCCN)C(=O)N[C@@H](Cc1ccccc1)C(=O)N[C@@H](Cc1ccccc1)C(=O)N[C@@H](CCCCN)C(=O)N[C@@H](CC(=O)O)C(=O)N[C@@H](CC(C)C)C(=O)N[C@@H](CC(C)C)C(=O)NCC(=O)N[C@@H](CCCCN)C(=O)N[C@@H](Cc1ccccc1)C(=O)N[C@@H](CC(C)C)C(=O)NCC(=O)N[C@@H](CC(N)=O)C(=O)N[C@@H](CC(N)=O)C(=O)O)C(C)C (some centres unmarked)", "tested on": "mouse alpha-synuclein preformed fibrils", "conditions": "2 µM, 30 min, emission 735 nm, together with: 10 µM fibrils", "measurement": "fluorescence excitation increase", "value": "7.6 fold"}
{"Compound": "Cc1cc(C(=O)Nc2nc3cccc(C)c3n2[C@H]2CCCCN(C(=O)/C=C/CN(C)C)C2)ccn1", "tested on": "Trypanosoma brucei brucei", "system": "2T1 wild type", "conditions": "0.00038 µM", "measurement": "survival", "value": "102% and 103% and 100% and 117% and 108% and 90.4%"}
{"note": "For quick reference, copied from above:"}
{"Compound": "CC(C)(C)C(=O)OCOP(=O)(OCOC(=O)C(C)(C)C)C1CCCN(O)C1=O (centres unmarked)", "tested on": "SK-MEL-2", "measurement": "log GI50", "value": "-5.81 log M"}
